# Results pooled from the literature.
# Every numbered part comes from another study and shows a few of its results, in no order.

# Set 1 — method: RNA Bind-n-Seq; form: RNA; matrix: in vitro; tested at: 20 nM; notes: 6-mer, flanks averaged, single round; added: 150 mM LiCl; relative to: input library; reading: higher = stronger binding
# Target: TAR DNA-binding protein 43, full length, His tag (TARDBP, Homo sapiens, UniProt Q13148, residues 1-414)
Oligonucleotide,6-mer enrichment (R)
AUACGU,0.877
AAGAGA,0.945
AAAACU,0.852
GUUUAA,1.05

# Set 2 — method: protein-binding microarray; form: double-stranded DNA, one strand shown; matrix: in vitro; tested at: 2200 nM top; notes: 60-bp whole probe; added: salmon DNA 0.4 mg/ml; relative to: random background probes; reading: higher = stronger binding; shared flanks, not repeated: GCCTAGCAC … GTCTTGATTCGCTTGACGCTGCTG
# Target: Interferon regulatory factor 7, full length, phosphomimetic (IRF7, Homo sapiens, UniProt Q92985, residues 1-503, S471D/S472D/S475D/S476D/S477D/S483D/S484D/S487D)
# Construct (chain): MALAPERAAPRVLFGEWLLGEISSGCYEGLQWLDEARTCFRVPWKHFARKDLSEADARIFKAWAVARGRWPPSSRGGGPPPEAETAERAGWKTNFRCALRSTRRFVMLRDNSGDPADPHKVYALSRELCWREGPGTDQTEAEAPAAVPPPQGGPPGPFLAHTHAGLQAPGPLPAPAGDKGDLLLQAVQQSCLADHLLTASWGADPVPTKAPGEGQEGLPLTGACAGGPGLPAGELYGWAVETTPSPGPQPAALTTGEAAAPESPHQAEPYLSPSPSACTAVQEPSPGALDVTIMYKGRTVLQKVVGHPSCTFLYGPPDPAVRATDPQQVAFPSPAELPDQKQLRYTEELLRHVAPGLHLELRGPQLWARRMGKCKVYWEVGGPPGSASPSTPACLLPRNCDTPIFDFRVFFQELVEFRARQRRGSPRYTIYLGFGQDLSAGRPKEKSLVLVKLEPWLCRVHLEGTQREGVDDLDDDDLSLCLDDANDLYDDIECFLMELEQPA
Oligonucleotide,fitted relative affinity [z-score]
GACGGACGGGACTATCGGGACGTGCTA,-1.03
GACGATTCCGGTTTCGGGACGTGCTAG,4.81
ATAGAACTGGGGACTGGATTAGTGCTA,-0.474
GACGGTATCGGGAATGGGGACGTGCTA,-0.37
GACGATTCAAGTTTCGAGACGTGCTAG,2.85

# Set 3 — method: RNA Bind-n-Seq; form: RNA; matrix: in vitro; tested at: 200 nM; notes: whole 134-nt RNA, ends assumed; added: 150 mM LiCl; relative to: input library; reading: higher = stronger binding; each molecule: 7-deaza-guanosine replaces G
# Target: Ras GTPase-activating protein-binding protein 1, full length (G3BP1, Homo sapiens, UniProt Q13283)
# Sequence of UniProt Q13283 (whole entry, looked up): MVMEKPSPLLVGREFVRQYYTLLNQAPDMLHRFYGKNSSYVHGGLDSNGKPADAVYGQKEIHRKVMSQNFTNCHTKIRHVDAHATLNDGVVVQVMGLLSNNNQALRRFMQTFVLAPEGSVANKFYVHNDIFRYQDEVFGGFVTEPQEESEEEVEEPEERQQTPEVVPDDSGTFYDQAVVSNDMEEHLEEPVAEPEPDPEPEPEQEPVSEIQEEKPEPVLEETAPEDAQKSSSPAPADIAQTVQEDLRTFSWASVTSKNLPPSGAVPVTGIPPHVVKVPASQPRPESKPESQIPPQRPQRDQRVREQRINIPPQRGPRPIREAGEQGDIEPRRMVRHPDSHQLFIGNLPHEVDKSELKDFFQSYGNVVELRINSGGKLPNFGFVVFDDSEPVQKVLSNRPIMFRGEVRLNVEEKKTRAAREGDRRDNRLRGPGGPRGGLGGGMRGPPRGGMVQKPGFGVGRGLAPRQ
Oligonucleotide,log2 enrichment
GGGAGUUCUACAGUCCGACGAUCCACAGACAACACGCACCCACACAGACACAUAGGGAAGGGGUUGGGAUGGGGACAGGGUGCACAGCAGGGCGGGGUAGGACCCCAGCCCCUUGGAAUUCUCGGGUGUCAAGG,0.0219
GGGAGUUCUACAGUCCGACGAUCACCAUGCAGGUGGGCAUCUUUGGGAAGUGGGGCAAGGGGGGGAUAGGGAGGGGGGAAACACUUUGGGAACAGGUGGUCCCAGGUCGUUUCUGGAAUUCUCGGGUGUCAAGG,0.342
GGGAGUUCUACAGUCCGACGAUCUGCACACCGCCUUGCACAUAGCAGAGGCUCCGGGCUCACUCCUUCCUGGUGGGAAAGGAAGAUGCCUGUCCUCUCCGUGGAAGACCCUGGUGGAAUUCUCGGGUGUCAAGG,-0.168
GGGAGUUCUACAGUCCGACGAUCGCAGGAAGUAAAAACAAAUGGAAAUGCUUCGGAUAGUGGCAGGGGUGGGGGUUGCUAAGGAAAGGGUGGGAUGGGAGUUGGUAAAGAGUUUGGAAUUCUCGGGUGUCAAGG,-0.00809

# Further values, each from its own experiment
Molecule,target,assay,system,setting,scale,quantity,result
"PhoQ, residues 284 288 289 292 302 303 TAVSDG","PhoP, residues 12 14 15 18 19 LYHSL (Escherichia coli, UniProt P23836)","Sort-seq, measured: YFP reporter",E. coli,"PhoQ-PhoP variant library, added: 10 µM Mg2+","relative to: high Mg2+ state, higher = stronger signaling",fold induction,1.03
